Results collected from several papers.
Parts stem from different laboratories: compare values within a part only. Several values in a cell are separate wells, animals, samples, runs or records.
UniProt P51812, sequence (whole entry, looked up): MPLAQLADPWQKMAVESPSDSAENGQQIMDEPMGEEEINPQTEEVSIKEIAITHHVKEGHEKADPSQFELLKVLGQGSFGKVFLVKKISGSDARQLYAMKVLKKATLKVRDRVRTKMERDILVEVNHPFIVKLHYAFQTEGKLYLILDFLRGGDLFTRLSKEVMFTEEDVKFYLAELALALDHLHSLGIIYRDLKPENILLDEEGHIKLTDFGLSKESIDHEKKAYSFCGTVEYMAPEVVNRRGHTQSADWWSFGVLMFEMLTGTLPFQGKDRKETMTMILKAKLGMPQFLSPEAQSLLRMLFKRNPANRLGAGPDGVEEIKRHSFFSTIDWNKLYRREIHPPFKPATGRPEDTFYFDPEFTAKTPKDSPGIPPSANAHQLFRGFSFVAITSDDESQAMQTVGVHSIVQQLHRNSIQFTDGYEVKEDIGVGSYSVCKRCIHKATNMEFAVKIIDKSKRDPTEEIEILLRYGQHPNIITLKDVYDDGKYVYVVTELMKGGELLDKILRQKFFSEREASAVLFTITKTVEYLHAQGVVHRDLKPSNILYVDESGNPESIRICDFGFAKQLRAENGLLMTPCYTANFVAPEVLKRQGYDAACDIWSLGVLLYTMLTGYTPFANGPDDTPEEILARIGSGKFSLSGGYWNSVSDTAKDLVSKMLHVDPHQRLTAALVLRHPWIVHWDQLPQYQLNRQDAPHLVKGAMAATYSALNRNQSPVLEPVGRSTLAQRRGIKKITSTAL
UniProt Q16566, sequence (whole entry, looked up): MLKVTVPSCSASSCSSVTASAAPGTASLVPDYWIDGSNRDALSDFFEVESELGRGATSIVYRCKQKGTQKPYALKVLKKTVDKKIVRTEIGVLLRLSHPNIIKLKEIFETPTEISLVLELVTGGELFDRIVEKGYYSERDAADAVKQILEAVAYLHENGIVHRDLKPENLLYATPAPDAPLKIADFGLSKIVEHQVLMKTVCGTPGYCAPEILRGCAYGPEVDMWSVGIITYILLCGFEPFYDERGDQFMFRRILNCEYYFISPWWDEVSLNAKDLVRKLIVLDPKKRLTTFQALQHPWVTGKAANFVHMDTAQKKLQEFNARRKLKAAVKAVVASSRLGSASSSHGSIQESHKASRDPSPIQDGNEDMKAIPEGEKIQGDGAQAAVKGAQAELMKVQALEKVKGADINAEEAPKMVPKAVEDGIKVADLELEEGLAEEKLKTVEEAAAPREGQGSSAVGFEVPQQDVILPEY
UniProt O14965, sequence (whole entry, looked up): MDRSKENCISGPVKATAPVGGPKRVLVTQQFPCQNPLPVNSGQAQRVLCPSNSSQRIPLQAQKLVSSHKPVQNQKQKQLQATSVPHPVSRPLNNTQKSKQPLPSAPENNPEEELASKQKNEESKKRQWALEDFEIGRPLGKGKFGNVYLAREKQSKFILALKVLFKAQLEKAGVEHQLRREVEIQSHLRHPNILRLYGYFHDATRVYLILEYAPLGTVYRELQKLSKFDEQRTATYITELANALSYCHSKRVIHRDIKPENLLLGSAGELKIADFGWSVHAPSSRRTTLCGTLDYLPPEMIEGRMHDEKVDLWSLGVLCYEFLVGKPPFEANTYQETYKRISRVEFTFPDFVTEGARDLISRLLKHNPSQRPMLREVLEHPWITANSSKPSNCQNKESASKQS
UniProt Q15303, sequence (whole entry, looked up): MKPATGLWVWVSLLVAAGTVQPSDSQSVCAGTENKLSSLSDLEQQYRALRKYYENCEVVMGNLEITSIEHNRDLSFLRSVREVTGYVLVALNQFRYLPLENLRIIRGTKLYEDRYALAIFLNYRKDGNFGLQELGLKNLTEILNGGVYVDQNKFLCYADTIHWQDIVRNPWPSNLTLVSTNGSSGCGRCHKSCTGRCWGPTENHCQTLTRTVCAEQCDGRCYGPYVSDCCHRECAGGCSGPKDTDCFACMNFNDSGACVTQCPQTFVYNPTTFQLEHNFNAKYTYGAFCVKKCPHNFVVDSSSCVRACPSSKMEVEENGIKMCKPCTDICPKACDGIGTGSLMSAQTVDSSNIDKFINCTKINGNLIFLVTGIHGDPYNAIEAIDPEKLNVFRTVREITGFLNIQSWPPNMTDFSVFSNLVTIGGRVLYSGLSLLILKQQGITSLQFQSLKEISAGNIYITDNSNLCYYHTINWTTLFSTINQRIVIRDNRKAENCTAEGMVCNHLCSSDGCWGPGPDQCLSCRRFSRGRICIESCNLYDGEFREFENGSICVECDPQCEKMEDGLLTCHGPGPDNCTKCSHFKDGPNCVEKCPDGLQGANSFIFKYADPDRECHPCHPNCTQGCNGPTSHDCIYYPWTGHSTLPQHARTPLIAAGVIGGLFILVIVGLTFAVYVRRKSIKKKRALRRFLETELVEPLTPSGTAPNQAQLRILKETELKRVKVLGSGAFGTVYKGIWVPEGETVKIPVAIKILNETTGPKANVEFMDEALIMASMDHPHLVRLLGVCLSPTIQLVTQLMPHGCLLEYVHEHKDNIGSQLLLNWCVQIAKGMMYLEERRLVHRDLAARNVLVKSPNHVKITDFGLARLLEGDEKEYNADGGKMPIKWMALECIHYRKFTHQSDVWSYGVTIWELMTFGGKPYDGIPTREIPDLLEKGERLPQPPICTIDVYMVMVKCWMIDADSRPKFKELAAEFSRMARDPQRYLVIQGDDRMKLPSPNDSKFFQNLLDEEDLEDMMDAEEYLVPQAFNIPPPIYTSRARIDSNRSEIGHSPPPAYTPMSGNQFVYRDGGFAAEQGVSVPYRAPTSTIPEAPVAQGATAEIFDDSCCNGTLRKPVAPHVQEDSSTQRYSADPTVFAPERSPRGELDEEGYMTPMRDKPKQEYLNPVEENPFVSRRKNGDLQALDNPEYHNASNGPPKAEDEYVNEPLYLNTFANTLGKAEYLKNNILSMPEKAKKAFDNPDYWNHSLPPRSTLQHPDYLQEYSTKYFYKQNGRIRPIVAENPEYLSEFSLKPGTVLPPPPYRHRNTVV
UniProt P49760, sequence (whole entry, looked up): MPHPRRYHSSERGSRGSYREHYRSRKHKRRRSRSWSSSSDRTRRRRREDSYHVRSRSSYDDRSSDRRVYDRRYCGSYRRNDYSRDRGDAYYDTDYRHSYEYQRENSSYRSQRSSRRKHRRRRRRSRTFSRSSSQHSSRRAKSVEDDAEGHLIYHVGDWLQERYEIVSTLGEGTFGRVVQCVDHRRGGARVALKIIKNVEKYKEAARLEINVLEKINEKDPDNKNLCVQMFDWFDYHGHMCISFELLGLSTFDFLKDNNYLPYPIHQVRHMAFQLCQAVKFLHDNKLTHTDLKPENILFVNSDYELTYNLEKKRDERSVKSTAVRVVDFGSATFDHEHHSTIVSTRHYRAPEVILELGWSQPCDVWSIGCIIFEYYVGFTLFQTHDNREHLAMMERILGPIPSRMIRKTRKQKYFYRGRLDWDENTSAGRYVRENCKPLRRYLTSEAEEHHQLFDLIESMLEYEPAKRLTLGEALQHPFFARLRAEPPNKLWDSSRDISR
UniProt P06493, sequence (whole entry, looked up): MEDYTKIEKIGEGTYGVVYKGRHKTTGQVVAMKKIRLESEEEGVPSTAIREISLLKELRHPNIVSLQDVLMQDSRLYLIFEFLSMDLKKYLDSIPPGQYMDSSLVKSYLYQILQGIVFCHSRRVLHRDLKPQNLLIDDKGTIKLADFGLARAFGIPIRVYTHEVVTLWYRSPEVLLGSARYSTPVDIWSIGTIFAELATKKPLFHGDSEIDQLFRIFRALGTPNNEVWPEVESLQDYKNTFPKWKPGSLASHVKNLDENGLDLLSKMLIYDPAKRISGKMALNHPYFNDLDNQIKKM
UniProt Q9HAZ1, sequence (whole entry, looked up): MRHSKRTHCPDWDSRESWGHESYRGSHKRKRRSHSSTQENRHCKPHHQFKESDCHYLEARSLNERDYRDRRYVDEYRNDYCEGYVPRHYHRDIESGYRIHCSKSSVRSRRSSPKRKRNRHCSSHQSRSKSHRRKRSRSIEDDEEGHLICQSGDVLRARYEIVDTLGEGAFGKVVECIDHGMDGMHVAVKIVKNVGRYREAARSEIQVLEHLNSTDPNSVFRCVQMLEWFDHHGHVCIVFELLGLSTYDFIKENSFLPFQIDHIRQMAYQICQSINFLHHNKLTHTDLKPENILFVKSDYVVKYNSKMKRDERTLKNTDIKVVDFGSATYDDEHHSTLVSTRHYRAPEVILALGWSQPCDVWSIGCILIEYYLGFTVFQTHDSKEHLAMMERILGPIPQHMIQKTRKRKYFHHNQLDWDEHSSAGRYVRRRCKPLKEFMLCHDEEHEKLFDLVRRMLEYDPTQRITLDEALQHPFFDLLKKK

Study 1 — observed: kinase activity; quantity: inhibition
Compound: CNc1ncc2cc(-c3cc(OC)cc(OC)c3Cl)c(=O)n(CCc3ccc(NC(=O)C(C#N)=CC(C)(C)N4CCOCC4)cc3)c2n1
FES: Tyrosine-protein kinase Fes/Fps (FES, Homo sapiens, UniProt P07332)
UniProt P07332, sequence (whole entry, looked up): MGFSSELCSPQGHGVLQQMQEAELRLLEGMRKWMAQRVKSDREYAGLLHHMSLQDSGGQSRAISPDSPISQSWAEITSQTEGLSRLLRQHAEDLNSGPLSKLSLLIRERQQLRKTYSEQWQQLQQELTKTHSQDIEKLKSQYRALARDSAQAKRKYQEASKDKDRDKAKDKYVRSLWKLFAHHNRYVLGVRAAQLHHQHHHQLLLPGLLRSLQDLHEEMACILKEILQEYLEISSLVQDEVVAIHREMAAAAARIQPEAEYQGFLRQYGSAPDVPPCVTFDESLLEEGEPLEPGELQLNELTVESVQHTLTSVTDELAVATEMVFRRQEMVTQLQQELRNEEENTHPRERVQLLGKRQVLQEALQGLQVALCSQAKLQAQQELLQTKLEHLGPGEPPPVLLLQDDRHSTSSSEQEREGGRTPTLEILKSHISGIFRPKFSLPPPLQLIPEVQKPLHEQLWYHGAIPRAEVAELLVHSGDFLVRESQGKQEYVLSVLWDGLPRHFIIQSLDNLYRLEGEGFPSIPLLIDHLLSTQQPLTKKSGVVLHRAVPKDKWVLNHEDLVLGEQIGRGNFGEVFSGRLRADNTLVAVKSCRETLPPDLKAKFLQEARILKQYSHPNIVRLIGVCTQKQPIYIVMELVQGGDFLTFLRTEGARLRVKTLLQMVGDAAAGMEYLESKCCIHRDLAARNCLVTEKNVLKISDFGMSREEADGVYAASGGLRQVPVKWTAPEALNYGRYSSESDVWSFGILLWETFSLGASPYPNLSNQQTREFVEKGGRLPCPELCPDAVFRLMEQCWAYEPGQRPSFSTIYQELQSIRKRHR
Proto-oncogene tyrosine-protein kinase ROS (ROS1, Homo sapiens, UniProt P08922); 1 µM: 3%
Ephrin type-A receptor 5 (EPHA5, Homo sapiens, UniProt P54756); 0.1 µM: 8%
Ephrin type-A receptor 3 (EPHA3, Homo sapiens, UniProt P29320); 1 µM: -12%
Dual specificity protein kinase CLK2 (CLK2, Homo sapiens, UniProt P49760); 0.1 µM: -5%
NUAK family SNF1-like kinase 1 (NUAK1, Homo sapiens, UniProt O60285); 0.1 µM: 2%
FES; 0.1 µM: 0%
Cyclin-dependent kinase 1 (CDK1, Homo sapiens, UniProt P06493); 1 µM: 4%
Receptor tyrosine-protein kinase erbB-4 (ERBB4, Homo sapiens, UniProt Q15303); 0.1 µM: -1%
Ribosomal protein S6 kinase alpha-3 (RPS6KA3, Homo sapiens, UniProt P51812); 1 µM: 2%
Aurora kinase A (AURKA, Homo sapiens, UniProt O14965); 0.1 µM: -1%
FES; 1 µM: 7%
Fibroblast growth factor receptor 2 (FGFR2, Homo sapiens, UniProt P21802); 1 µM: 98%
Protein kinase C iota type (PRKCI, Homo sapiens, UniProt P41743); 1 µM: 1%
Serine/threonine-protein kinase B-raf (BRAF, Homo sapiens, UniProt P15056); 0.1 µM: -2%
Serine/threonine-protein kinase DCLK2 (DCLK2, Homo sapiens, UniProt Q8N568); 1 µM: 1%
Dual specificity protein kinase CLK4 (CLK4, Homo sapiens, UniProt Q9HAZ1); 0.1 µM: -2%
Non-receptor tyrosine-protein kinase TNK1 (TNK1, Homo sapiens, UniProt Q13470); 0.1 µM: 5%
Fibroblast growth factor receptor 4 (FGFR4, Homo sapiens, UniProt P22455); 0.1 µM: 62%
Calcium/calmodulin-dependent protein kinase type IV (CAMK4, Homo sapiens, UniProt Q16566); 1 µM: 5%
Tyrosine-protein kinase ABL2 (ABL2, Homo sapiens, UniProt P42684); 0.1 µM: 1%

Study 2 — cell line: NCI-H292; technique: CellTiter-Glo; time: 72 h; quantity: viability
SMILES: CCONC(=O)/C=C/CNCCCCN1c2cc(Cl)ccc2CCc2cnn(C)c21.O=C(O)/C=C\C(=O)O
0.5 µM: 92.1% and 98.4% and 105%
5 µM: 68.7% and 57.4% and 59%
0.005 µM: 105% and 91.5% and 98.2%
50 µM: -0.97% and -0.923% and -1.02%
0.05 µM: 98.4% and 100% and 93.7%

Study 3 — cell line: U-87 MG; concentration: concentration not given; baseline: DMSO; quantity: log2 fold change
SMILES: CCN1/C(=C/C=C2\CCCC(/C=C/C3=[N+](CC)c4ccccc4C3(C)C)=C2NCCCCCCCCN2CCC(Nc3nc4ccccc4n3Cc3ccc(F)cc3)CC2)C(C)(C)c2ccccc21
refers to: IER3 mRNA: 1.53
refers to: ARSG mRNA: 1.05
refers to: NAA38 mRNA: -1.08
refers to: SYT7 mRNA: 2.3
refers to: CKAP2L mRNA: -1.5
refers to: PWP2 mRNA: -0.819
refers to: CUEDC1 mRNA: -1.2
refers to: RASD2 mRNA: -1.39
refers to: HASPIN mRNA: -1.9
refers to: KIAA1958 mRNA: 1.11
refers to: F2R mRNA: -1.98
refers to: EHBP1L1 mRNA: -1.1
refers to: PTK7 mRNA: -1.44
refers to: SQSTM1 mRNA: 1.36
refers to: ADCY3 mRNA: -1.24
refers to: TCEA3 mRNA: -1.73

Mixed results
Cc1ccc(O)c(C)c1-c1cnc2[nH]c(-c3cnc(N)nc3)cc2c1C#N  IC50 (Membrane-associated tyrosine- and threonine-specific cdc2-inhibitory kinase (PKMYT1, Homo sapiens, UniProt Q99640); enzyme activity, inhibitor): 2 nM

Some of these lines once more (study 1):
Fibroblast growth factor receptor 4 (FGFR4, Homo sapiens, UniProt P22455); 0.1 µM: 62%
Calcium/calmodulin-dependent protein kinase type IV (CAMK4, Homo sapiens, UniProt Q16566); 1 µM: 5%
Protein kinase C iota type (PRKCI, Homo sapiens, UniProt P41743); 1 µM: 1%
